Assay results pooled from the literature.
Compare with care: the assays were run in different laboratories. ± marks the error that the study gave.
Target: Cytochrome P450 2C9 (CYP2C9, Homo sapiens, UniProt P11712)
UniProt P11712, sequence (whole entry, looked up): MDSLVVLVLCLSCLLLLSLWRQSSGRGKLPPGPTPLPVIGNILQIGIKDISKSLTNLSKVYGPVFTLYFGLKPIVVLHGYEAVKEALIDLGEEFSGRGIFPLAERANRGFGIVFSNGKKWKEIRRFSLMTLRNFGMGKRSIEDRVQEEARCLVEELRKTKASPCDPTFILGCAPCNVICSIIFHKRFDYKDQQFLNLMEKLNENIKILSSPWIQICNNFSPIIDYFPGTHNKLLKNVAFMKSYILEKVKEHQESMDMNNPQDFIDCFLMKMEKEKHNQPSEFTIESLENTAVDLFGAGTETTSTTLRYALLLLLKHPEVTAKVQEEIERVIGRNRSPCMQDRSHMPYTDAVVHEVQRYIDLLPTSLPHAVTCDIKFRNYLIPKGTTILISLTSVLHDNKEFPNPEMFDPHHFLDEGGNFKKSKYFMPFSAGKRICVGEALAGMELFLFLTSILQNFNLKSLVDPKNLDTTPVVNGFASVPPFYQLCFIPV

The IC50 of `CCCN(CCC)CCc1cccc2c1CC(=O)N2` is reported as greater than 1000 µM (enzyme activity, inhibitor; together with: MFC substrate).
`Cc1nc(-c2cnc(NC(C)C)n(C)c2=O)ccc1Oc1ccnc(-c2cnn(C)c2)c1` has an IC50 of 84 µM (time-dependent inhibition, inhibitor; 30 min preincubation without NADPH).
With `Cc1cc(O[C@@H]2CCOC2)cc(C(=O)Nc2ccc(F)cn2)n1` the IC50 was greater than 30 µM (inhibitor).
The IC50 of `CC(C)=CCc1c(O)cc(O)c2c1O[C@H](c1ccc(O)cc1)CC2=O` is reported as 1.1 ± 0.2 µM (inhibitor; pH 7.4).
With `O=C(NCCN1CCCC1)c1cc(-c2ccc(CN3CCOCC3)cc2)nc2ccc(F)cc12` the IC50 was greater than 100 µM (inhibitor; pooled human liver microsomes; together with: diclofenac).
For `CCOC(=O)[C@@]12C[C@@H]1[C@@H](n1ccc3c(NC)nc(C#Cc4ccc(Cl)s4)nc31)[C@H](O)[C@@H]2O`, the IC50 was 14.5 µM (enzyme activity, inhibitor; human liver microsomes; 10 min, pH 7.4, together with: diclofenac substrate).
`COc1ccc(Cc2nc(NC(=O)C34CC5CC(CC(C5)C3)C4)n(C)c2Cc2ccc(OC)c(OC)c2)cc1` gave an IC50 of 97.8 ± 23.3 µM.
The IC50 of `COc1cc(O)c(CC=C(C)C)c(O)c1C(=O)/C=C/c1ccc(O)cc1` is reported as 3.3 ± 0.4 µM (enzyme activity, inhibitor; human liver microsomes; pH 7.4, together with: tolbutamide).
For `CCOc1cc(-c2nncn2C)ccc1Nc1ncc2cc(C)nc(NCC(C)(C)C)c2n1`, the IC50 was 10 to 50 µM (enzyme activity, inhibitor).
